Measured values gathered from unrelated publications.
Every numbered part comes from another study and shows a few of its results, in no order. Substitutions count along the parent as printed.
Sequence of UniProt Q13557 (whole entry, looked up): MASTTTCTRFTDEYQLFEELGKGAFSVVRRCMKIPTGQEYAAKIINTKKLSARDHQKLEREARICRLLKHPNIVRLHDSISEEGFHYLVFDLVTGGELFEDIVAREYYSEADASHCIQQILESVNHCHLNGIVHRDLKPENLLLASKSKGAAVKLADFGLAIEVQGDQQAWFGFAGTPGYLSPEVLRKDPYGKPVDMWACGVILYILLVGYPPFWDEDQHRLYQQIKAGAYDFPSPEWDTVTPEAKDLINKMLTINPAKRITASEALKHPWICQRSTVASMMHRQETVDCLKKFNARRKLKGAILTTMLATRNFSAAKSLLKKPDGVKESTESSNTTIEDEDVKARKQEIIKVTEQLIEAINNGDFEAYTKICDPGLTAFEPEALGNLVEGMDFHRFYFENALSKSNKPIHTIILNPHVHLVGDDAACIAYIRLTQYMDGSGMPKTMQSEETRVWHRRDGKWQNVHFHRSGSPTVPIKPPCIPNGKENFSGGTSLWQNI
Sequence of UniProt P17948 (whole entry, looked up): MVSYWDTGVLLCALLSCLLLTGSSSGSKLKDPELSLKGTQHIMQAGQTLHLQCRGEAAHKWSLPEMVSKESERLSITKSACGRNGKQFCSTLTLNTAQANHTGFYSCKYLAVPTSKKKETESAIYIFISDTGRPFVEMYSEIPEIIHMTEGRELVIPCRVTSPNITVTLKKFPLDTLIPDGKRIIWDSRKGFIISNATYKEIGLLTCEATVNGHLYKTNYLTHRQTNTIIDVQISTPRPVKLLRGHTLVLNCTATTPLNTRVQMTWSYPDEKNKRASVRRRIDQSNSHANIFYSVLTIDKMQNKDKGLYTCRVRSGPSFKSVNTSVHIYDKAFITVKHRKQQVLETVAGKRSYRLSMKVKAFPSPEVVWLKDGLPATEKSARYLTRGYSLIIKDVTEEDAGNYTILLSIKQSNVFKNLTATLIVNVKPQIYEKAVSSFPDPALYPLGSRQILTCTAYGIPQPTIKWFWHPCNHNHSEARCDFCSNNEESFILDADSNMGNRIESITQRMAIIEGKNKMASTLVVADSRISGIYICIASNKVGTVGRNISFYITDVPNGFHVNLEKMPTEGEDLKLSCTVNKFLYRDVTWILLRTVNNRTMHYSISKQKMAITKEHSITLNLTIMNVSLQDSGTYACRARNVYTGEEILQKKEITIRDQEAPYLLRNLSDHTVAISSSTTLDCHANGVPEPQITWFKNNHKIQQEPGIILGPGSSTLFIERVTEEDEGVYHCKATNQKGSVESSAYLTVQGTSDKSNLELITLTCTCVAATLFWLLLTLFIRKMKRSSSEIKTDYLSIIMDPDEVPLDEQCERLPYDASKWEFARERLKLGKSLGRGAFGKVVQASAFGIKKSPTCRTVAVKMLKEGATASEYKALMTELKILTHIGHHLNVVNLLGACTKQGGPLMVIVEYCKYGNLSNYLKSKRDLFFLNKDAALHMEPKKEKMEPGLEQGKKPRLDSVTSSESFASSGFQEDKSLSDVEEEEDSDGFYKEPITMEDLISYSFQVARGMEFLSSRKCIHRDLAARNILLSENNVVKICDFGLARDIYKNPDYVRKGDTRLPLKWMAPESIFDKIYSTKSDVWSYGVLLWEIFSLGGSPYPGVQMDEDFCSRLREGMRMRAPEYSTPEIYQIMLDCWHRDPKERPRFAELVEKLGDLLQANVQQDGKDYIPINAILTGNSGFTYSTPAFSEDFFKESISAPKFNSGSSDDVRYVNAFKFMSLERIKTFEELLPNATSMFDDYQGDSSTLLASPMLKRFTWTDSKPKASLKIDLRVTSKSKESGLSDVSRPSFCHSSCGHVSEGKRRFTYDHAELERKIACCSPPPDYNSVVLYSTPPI
Sequence of UniProt P07333 (whole entry, looked up): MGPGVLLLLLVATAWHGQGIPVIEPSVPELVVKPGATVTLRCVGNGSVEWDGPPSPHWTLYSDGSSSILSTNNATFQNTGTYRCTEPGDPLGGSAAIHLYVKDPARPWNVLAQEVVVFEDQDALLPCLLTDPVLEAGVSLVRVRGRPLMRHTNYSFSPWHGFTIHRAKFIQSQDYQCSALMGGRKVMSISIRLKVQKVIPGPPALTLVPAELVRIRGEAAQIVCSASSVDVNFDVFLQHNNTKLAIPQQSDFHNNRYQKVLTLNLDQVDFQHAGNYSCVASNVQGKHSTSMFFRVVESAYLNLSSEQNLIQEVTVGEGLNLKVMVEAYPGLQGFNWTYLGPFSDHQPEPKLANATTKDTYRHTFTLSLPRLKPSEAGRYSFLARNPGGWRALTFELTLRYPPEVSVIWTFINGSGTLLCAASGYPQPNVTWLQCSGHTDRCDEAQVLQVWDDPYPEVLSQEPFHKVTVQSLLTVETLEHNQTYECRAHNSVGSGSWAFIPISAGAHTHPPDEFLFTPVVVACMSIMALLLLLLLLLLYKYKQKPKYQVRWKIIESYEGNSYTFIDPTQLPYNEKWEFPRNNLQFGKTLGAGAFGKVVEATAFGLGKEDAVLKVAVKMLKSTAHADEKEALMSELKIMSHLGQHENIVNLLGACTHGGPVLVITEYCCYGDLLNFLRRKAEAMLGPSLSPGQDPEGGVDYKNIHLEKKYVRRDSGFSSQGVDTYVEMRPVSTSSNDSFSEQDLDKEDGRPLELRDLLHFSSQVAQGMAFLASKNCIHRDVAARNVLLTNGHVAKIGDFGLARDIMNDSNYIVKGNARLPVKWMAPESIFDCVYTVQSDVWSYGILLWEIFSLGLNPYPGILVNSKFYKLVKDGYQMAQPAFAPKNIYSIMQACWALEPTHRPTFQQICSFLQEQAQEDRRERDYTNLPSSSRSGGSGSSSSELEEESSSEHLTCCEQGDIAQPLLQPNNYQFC
Sequence of UniProt O94921 (whole entry, looked up): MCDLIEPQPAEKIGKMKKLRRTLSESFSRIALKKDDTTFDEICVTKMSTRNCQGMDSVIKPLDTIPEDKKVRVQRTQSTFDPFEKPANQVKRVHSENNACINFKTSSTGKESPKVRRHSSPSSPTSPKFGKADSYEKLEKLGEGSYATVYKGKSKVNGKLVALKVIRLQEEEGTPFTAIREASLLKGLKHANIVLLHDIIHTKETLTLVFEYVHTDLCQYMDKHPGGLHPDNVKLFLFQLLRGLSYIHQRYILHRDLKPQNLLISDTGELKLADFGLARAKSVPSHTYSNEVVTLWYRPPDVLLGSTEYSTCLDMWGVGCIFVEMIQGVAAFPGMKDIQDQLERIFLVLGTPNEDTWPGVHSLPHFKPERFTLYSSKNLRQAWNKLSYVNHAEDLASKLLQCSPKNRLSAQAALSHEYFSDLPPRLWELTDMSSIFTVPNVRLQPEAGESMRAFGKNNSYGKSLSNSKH
Sequence of UniProt Q9HC98 (whole entry, looked up): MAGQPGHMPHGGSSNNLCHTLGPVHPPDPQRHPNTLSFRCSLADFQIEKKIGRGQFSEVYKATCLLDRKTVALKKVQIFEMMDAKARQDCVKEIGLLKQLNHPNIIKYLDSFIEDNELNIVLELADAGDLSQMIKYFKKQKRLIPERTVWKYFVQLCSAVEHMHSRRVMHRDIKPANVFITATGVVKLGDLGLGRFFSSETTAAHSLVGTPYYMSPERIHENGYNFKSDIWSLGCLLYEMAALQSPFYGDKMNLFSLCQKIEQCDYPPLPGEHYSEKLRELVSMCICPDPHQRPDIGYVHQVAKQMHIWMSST

Study 1
Target: Serine/threonine-protein kinase Nek9 (NEK9, Homo sapiens, UniProt Q8TD19)
Sequence of UniProt Q8TD19 (whole entry, looked up): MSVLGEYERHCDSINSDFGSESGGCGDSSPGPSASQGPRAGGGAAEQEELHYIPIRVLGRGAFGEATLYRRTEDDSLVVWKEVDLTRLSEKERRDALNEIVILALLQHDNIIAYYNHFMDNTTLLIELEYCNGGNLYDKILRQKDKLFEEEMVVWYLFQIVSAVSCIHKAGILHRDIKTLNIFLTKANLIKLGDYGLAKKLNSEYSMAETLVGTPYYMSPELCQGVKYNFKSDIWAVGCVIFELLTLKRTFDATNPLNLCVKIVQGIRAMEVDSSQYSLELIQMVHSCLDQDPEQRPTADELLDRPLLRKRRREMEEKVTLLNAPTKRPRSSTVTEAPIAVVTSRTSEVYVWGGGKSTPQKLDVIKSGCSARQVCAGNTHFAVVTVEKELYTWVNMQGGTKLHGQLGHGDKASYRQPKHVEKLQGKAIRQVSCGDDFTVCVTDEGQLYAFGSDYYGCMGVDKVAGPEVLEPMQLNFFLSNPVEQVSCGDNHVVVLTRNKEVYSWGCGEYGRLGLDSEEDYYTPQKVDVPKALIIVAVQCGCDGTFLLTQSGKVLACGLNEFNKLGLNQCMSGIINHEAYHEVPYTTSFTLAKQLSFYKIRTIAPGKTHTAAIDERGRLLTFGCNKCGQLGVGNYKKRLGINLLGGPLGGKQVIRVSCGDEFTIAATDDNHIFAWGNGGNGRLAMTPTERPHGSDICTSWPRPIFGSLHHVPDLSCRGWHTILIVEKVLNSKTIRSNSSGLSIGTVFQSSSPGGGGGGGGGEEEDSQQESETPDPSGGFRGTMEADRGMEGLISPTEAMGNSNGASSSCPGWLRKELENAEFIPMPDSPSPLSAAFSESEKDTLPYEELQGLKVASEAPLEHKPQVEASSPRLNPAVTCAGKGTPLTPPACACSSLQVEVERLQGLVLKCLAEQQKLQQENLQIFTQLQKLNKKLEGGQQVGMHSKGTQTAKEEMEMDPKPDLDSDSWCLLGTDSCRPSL
Read-out: enzyme activity
Action: inhibitor
Concentration: 0.5 µM
Baseline: control
Quantity: remaining activity
Structure (SMILES) = C[C@@H](N)[C@H]1CC[C@H](C(=O)Nc2ccncc2)CC1; value = 93.1%
Structure (SMILES) = O=C1Nc2ccccc2/C1=C\c1c(Cl)[nH]c2ccccc12; value = 94.2%
Structure (SMILES) = COc1cccc(-c2cc(=O)c3ccccc3o2)c1N; value = 102%
Structure (SMILES) = O=C1Nc2ccc(Br)cc2/C1=C/c1cc2c([nH]1)CCCC2; value = 85.6%
Structure (SMILES) = CC(C)N(CCC(=O)c1ccc2ccccc2c1)Cc1ccccc1; value = 96.4%
Structure (SMILES) = Cc1ccc(S(=O)(=O)/C=C/C#N)cc1; value = 95.6%
Structure (SMILES) = CN1CCN(c2ccc3nc(-c4c(N)c5c(F)cccc5[nH]c4=O)[nH]c3c2)CC1; value = 58.9%
Structure (SMILES) = O=c1c(-c2ccc(F)cc2)c(-c2ccncc2)[nH]n1-c1ccc(Cl)cc1; value = 107%
Structure (SMILES) = CCCCc1c(-c2ccc(OC)cc2)[nH]c2nccnc12; value = 106%
Structure (SMILES) = O=C1Cc2c([nH]c3ccc(Br)cc23)-c2ccccc2N1; value = 94%
Structure (SMILES) = CCCNC(=O)Nc1ccc(Oc2ncnc3cc(OC)c(OC)cc23)cc1Cl; value = 83.3%
Structure (SMILES) = FC(F)(F)c1ccc(/C=C/c2nc(COc3ccc(CCCCn4ccnn4)cc3)co2)cc1; value = 95.5%

Study 2
Compound: CN(C)c1ncnc(-c2ccc3nc(Nc4cc(CN5CCN(C(=O)CC(F)(F)F)CC5)ccn4)[nH]c3c2)c1Cl
Read-out: cell-free assay
Technique: competition with immobilised ligand
Concentration: 1 µM
Quantity: remaining binding
target = FLT3 (Homo sapiens, UniProt P36888, ITD); value = 86%
target = WEE2 (Homo sapiens, UniProt P0C1S8); value = 100%
target = SGK2 (Homo sapiens, UniProt Q9HBY8); value = 43%
target = NEK6 (Homo sapiens, UniProt Q9HC98); value = 98%
target = CAMK2D (Homo sapiens, UniProt Q13557); value = 90%
target = Macrophage colony-stimulating factor 1 receptor, autoinhibited (CSF1R, Homo sapiens, UniProt P07333); value = 50%
target = PRKX (Homo sapiens, UniProt P51817); value = 100%
target = Tyrosine-protein kinase ABL1, phosphorylated (ABL1, Homo sapiens, UniProt P00519, Y253F); value = 37%
target = FLT1 (Homo sapiens, UniProt P17948); value = 100%
target = CDK14 (Homo sapiens, UniProt O94921); value = 100%

Study 3
Target: FOSL2, bZIP domain (human)
Technique: DHFR protein complementation
Sample: yeast
Notes: single substitutions, most at no-binding floor
Baseline: wild-type JUN-FOS pair
Reading: higher = stronger binding
Quantity: binding fitness
Starting sequence: JUN, bZIP domain (human); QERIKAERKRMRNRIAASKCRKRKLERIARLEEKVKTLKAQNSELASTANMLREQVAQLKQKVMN; partner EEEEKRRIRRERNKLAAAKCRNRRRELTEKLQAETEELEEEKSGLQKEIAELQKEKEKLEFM
Change = E32N; value = -0.155 natural log
Change = I28E; value = -0.0317 natural log
Change = K39S; value = -0.229 natural log
Change = S47E; value = 0.177 natural log
Change = E44H; value = 0.02 natural log
Change = E32H; value = -0.105 natural log
Change = L52Y; value = -0.477 natural log
Change = K39I; value = -0.333 natural log

Study 4
Target: ATP-dependent RNA helicase DDX3X, helicase core (DDX3X, Homo sapiens, UniProt O00571, residues 132-607)
Sequence of UniProt O00571 (132-607, looked up): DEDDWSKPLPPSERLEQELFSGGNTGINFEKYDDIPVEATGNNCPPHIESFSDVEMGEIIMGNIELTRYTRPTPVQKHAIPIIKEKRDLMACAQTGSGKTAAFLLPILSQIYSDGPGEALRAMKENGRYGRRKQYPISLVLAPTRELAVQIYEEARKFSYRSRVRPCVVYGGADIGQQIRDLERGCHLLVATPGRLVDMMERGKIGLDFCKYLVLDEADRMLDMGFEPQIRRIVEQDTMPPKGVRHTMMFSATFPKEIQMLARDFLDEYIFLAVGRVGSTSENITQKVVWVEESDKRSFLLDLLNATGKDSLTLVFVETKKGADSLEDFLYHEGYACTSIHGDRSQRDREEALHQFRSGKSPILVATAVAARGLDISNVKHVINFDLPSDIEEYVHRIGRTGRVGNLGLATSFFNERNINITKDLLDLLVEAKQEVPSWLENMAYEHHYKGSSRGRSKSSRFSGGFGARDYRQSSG
Technique: RNA Bind-n-Seq
Molecule type: RNA
Sample: in vitro
Concentration: 90 pmol
Notes: 4-mer, random 30-nt RNA, single round
With: 3 µM iPr-DMDA-PatA, 2 mM ADP, 2 mM phosphate
Baseline: input library
Reading: higher = stronger binding
Quantity: 4-mer enrichment
Sequence = GGCU; value = 0.683 fold
Sequence = ACUG; value = 0.889 fold
Sequence = AAAG; value = 1.47 fold
Sequence = CCCU; value = 1.07 fold
Sequence = UCGU; value = 0.906 fold
Sequence = CGCA; value = 0.854 fold
Sequence = AGGG; value = 1.07 fold
Sequence = AUCG; value = 0.976 fold

Some of these lines once more (study 1):
Structure (SMILES) = CCCNC(=O)Nc1ccc(Oc2ncnc3cc(OC)c(OC)cc23)cc1Cl; value = 83.3%
Structure (SMILES) = COc1cccc(-c2cc(=O)c3ccccc3o2)c1N; value = 102%
Structure (SMILES) = Cc1ccc(S(=O)(=O)/C=C/C#N)cc1; value = 95.6%
